Measured values gathered from unrelated publications.
Parts stem from different laboratories: compare values within a part only. Positions count from the first letter of the parent shown.

Sample 1 — method: RNA Bind-n-Seq; molecule type: RNA; matrix: in vitro; tested at: 365 nM; baseline: no-protein control; reading: higher = stronger binding; endpoint: RBNS enrichment (R)
Target: RNA binding protein fox-1 homolog 2, RRM domain, GST-SBP tag (RBFOX2, Homo sapiens, UniProt O43251-10, residues 100-194)
Notes: natural RNA segment, single round, ends assumed
Shared flanks, not repeated: GGGAGUUCUACAGUCCGACGAUC … UGGAAUUCUCGGGUGCCAA
AUUUCAGAUUGAGCACUUCACUAUCAAAAAUACUAACAUCACAUGGCUUGAAGAGUAACCAUCAGAGCUGAAUCAUCCAAGUAAGAACAAGUACCAUUGUUGAUUGAUAA: 0.605
AAAUCCACUUCUGGGACAGGCAGUACUGUCUGCAGCGAUACCCCCAAUAAACGGAACUUUUUAACCCCUCUGUGCCACUGUGCCUGGCCUUUCCCUCCUCUAAGUGGCUC: 0.458
GUUUGAGAGAUGUCUUUCAGUUUUCUUUUCCUGCAUCAUACCUGGAAUGCAUGCAGCCUGCUGUUGGUACCCUGCUCACCUGUGUCUUUCUUACCCAGGAGGCUUCUCUC: 1.34
UCCUAGAGCGCCCGGUGCCCCUCCCCGGCCUCCGGAAGAUCAGGGUGCGAGGUGUCGGUUCCCUCCUGUCCUGUGGUCCUGCCCCUGGGAUGGGGGUGCCUUGCUCCAGC: 0.441
UAAGCGAAUAUAUUAUAAUAUGUAUAGAGCGCCUUUUGUGUAAGUCACUGGUCAGAAUCCUCACUGAGCUCCCAGUCCAGAGAGAAGCCAGACAAUUAAAACAGUAAUGA: 0.403
CAGGUUAUUGAUAAGGUCAAGGGUUACUGUAAUGCCCAUUCCGAUAACUUCUAUAAAAAUAUCAUCCUGUCAGAUGCCUUCAGCCACAGCACAAAGUUUUAAUGUCAUUG: 0.632
GCAAAAUGGAGACCAAAUUCUAUCCUGUGAGGCUUUUAAUUGCACCAUAGUAUGCUCUGAGUAGCUUUACACUGCCUGGUACUGAUAGUAGUGGCUCGAUUUUUAAGAGC: 0.571
GGGAAGUAGCUUCUCCCAGCUGUUCCUCACCUCACCAGAUAUUUUCCCAAAGCCGAAACAAGAAAAGUCAGCAUGCCUGGGGCUAGAAGCGGAAUGUAAGAUACGUCUCU: 26.2
AGAAAGAAUAGAAGCGGGAGGCCCGCCCCGGUGGACACUAAGAUGGACCUCAAGUAGACUGCUCCUUGUACUUGAAGCGCUUACCUUUUGAUUUCCUGACUUUAUGUUCU: 0.406
GUGUGUAACCCUGGGUAGGCCACUCCAUCUCCUAGGUGUGUAACCCUGGACAGGACAUUUCACCUGCUAGUCUGUGCUAUUCUGGUAAAAUGAAGGGAUGCAUUGGACUA: 0.438

Sample 2 — target: CCNE2, cyclin fold, Cln2 fusion (human); method: yeast growth competition, sequencing; matrix: yeast; notes: strong parent motif; baseline: not given; reading: higher = stronger binding; endpoint: normalised enrichment score
Starting sequence: RBL2 docking peptide (human); STTRRRLFVENDS; partner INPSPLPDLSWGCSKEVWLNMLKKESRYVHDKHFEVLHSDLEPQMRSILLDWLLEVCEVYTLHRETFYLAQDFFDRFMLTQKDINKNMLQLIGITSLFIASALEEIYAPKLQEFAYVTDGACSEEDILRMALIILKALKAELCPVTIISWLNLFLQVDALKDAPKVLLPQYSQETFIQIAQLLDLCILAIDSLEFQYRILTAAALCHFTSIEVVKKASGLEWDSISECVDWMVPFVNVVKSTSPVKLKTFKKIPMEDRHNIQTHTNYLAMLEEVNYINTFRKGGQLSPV
E10Y: 2.21
T3S: 2.22
L7H: 0.0661
F8M: 0.0179
N11K: 4.33
F8Y: 0.765
R4Q: 0.656
D12F: 2.48
L7C: 1.18
R4E: -0.161
V9I: 3.24
R5T: 1.84
S1D: 3.68
N11L: 3.3
E10V: 2.55
S13H: 4.54

Sample 3 — method: DHFR PCA, deep sequencing; matrix: yeast; with: (+)-ABA 4.8 µM; baseline: wild-type fitted maximum; reading: higher = stronger binding; endpoint: relative binding score
Target: ABI1, truncated, D143A, DHFR fusion (Arabidopsis thaliana)
Notes: methotrexate growth selection, single substitutions
Starting sequence: PYL1, truncated, DHFR fusion (Arabidopsis thaliana); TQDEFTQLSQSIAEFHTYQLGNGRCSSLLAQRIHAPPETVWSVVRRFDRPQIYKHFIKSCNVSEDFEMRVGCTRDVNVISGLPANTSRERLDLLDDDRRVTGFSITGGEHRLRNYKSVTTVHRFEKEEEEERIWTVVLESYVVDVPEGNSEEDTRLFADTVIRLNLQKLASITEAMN; partner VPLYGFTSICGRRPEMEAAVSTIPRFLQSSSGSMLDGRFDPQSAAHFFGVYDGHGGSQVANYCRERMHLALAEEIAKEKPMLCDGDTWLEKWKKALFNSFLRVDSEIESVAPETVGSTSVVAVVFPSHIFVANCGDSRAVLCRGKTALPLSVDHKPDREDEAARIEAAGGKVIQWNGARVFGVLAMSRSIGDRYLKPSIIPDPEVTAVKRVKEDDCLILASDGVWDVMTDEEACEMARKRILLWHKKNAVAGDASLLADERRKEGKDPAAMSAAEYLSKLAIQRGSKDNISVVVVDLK
E127F: 68.2%
T120V: -3.52%
I105A: -4.46%
N149R: 1.72%
F157I: 1.16%
N165W: -4.93%
S27H: 62.4%
T39S: 54.1%
I133V: 88.2%
N77M: 76.2%
N85P: 3.5%
A30V: 72%

Sample 4 — method: universal PBM; molecule type: double-stranded DNA, one strand shown; matrix: in vitro; tested at: 600 nM; reading: higher = stronger binding; endpoint: E-score
Target: Sal-like protein 4, full length isoform A (SALL4, Homo sapiens, UniProt Q9UJQ4, residues 1-1053)
Sequence of UniProt Q9UJQ4 (whole entry, looked up): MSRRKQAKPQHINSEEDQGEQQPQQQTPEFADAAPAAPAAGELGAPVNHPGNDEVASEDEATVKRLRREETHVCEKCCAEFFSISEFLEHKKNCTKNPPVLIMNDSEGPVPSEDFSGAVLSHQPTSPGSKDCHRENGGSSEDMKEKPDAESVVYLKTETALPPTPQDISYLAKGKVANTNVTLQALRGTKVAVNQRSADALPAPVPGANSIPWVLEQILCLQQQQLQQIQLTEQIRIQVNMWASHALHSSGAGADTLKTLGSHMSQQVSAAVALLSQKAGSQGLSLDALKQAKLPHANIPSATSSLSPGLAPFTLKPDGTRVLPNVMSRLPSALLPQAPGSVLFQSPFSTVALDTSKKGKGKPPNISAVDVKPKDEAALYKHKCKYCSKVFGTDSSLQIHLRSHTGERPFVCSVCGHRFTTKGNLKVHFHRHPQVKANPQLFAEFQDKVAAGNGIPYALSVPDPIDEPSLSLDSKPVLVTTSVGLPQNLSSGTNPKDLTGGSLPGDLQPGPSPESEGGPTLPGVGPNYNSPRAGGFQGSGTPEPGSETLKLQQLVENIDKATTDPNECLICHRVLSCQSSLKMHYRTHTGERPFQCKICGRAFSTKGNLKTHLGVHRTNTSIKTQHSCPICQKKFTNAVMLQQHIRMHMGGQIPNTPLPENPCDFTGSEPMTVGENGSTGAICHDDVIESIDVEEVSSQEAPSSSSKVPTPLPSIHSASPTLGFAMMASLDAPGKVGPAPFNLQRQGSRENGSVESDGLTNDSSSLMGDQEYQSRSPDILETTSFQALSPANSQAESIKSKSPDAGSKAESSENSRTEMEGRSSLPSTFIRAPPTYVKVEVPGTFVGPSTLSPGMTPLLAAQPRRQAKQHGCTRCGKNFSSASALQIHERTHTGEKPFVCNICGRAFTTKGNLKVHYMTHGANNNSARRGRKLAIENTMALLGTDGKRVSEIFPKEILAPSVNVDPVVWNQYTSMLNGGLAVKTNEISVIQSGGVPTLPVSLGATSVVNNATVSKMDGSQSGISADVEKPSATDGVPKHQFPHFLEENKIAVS
Notes: 8-mer, flanks averaged, mean of replicates
GGTTGAAA: 0.0801
CCACATGA: 9e-05
TACTGGCA: 0.0855
ACGGTTCT: -0.114
ACCTGTAG: -0.0555
CCCACTCC: -0.17
AATTCGAA: 0.207
CGGGGGAG: -0.276
AAATCTCA: 0.129
CAACCCCG: -0.348
AAATATCG: 0.298
AGACATTA: 0.139
GACTGACA: 0.102

Repeated from above (sample 3):
F157I: 1.16%
I105A: -4.46%
I133V: 88.2%
S27H: 62.4%
N77M: 76.2%
E127F: 68.2%
T120V: -3.52%
A30V: 72%
